Experimental data collected from several papers.
Protocols differ between the studies behind these lines. Numbers after ± are the reported error.
PPO3: PPO3 (Agaricus bisporus, UniProt C7FF04)
Proline--tRNA ligase: Proline--tRNA ligase (Plasmodium falciparum, UniProt Q8I5R7)
ERBB2: Receptor tyrosine-protein kinase erbB-2 (ERBB2, Homo sapiens, UniProt P04626)
T1: DNA hairpin, hairpin, TTTT loop; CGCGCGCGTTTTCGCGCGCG
T2: dsDNA, hairpin duplex; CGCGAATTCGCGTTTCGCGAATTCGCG
T3: DNA hairpin, HEG linker; GTTATATCTTGATATAAC
T4: dsDNA, hairpin; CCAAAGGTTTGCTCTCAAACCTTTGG

The inhibition of COc1cc(C(=O)NC2CCC(N3CCN(CC4CCC5(CCCC5)C4)CC3)CC2)c(F)cc1Nc1ncc2c(n1)N(C1CCCC1(F)F)CC(F)(F)C(=O)N2C (stereo not drawn) is reported as 2.86% (Ephrin type-A receptor 5 (EPHA5, Homo sapiens, UniProt P54756); cell-free assay, TR-FRET; 10 µM).
Under co-immunoprecipitation, Clc1ccc2ccc3[n+](c2c1)[Ir-3]12([c]4ccccc4-3)([c]3ccccc3-c3ccc4ccc(Cl)cc4[n+]31)[n+]1ccccc1-c1cccc[n+]12.F[P-](F)(F)(F)(F)F is recorded as “no effect” (Cyclin-dependent kinase 7, with cyclin H (CDK7, Homo sapiens, UniProt P50613); MDA-MB-231; 3 µM, 4 h).
Under ATPase activity, CN(C)S(=O)(=O)c1ccc(S(=O)(=O)N2CCC(n3c(=O)[nH]c4ccccc43)CC2)cc1 is recorded as “no effect” (ATP-dependent helicase NAM7, helicase domain (NAM7, Saccharomyces cerevisiae, UniProt P30771); enzyme activity; 100 µM).
[Ru+2].[Ru+2].c1cnc2c(c1)c1nc(-c3ccc(OCCOCCOCCOc4ccc(-c5nc6c7cccnc7c7ncccc7c6[nH]5)cc4)cc3)[nH]c1c1cccnc12.c1cnc2c(ccc3nccnc32)n1.c1cnc2c(ccc3nccnc32)n1.c1cnc2c(ccc3nccnc32)n1.c1cnc2c(ccc3nccnc32)n1 gave a Kd of 380 nM (T1, DNA hairpin, hairpin, TTTT loop; BLI; pH 7.04, Na+ 100 mM).
For NC(=O)C1CCNC(=O)C(CCCNC(=O)c2cnccn2)NC(=O)C(Cc2ccco2)NC(=O)C(CC2CC2)NC(=O)C=CC(=O)N1 (stereo not drawn), “cis over trans potency ratio” read about 10 fold (Proto-oncogene tyrosine-protein kinase Src (SRC, Homo sapiens, UniProt P12931); enzyme activity).
With CSCC[C@H](NC(=O)[C@H](CCCNC(=N)N)NC(=O)[C@H](CCSC)NC(=O)[C@H](CCC(N)=O)NC(=O)[C@H](CO)NC(=O)[C@@H](NC(=O)[C@@H]1CCCN1)C(C)C)C(=O)N[C@@H](C)C(=O)N[C@H](C(=O)N1CCC[C@H]1C(=O)N[C@@H](CC(C)C)C(=O)N[C@@H](CC(C)C)C(=O)N[C@@H](Cc1ccccc1)C(=O)N[C@@H](CCCNC(=N)N)C(=O)N1CCC[C@H]1C(=O)O)[C@@H](C)O the IC50 was 80000 nM (MHC class II I-A g7 (Mus musculus, UniProt P04228+Q31135); competition binding; soluble protein; pH 7.4, NOD mouse protein, with: biotinylated transferrin peptide).
For Cc1cccc(C)c1NC(=O)CC(C)NCc1ccccc1 (stereo not drawn), the Hill coefficient was 1.1 ± 0.1 (Sodium channel protein type 4 subunit alpha (SCN4A, Homo sapiens, UniProt P35499, F1586C); tonic block of sodium current, whole-cell patch clamp; HEK293; 0.1 Hz stimulation).
CCCCCCCC(=O)Nc1ccc(N(C)C)nc1C gave a specific activity of under 1 pmol/min/µg (Carboxylesterase 3 (CES3, Homo sapiens, UniProt Q6UWW8); substrate; 50 µM, pH 8, 37 °C, enzyme purity 3%).
With CC[C@H](C)[C@H](NC(=O)[C@H](CCCCN)NC(=O)[C@H](CCCCN)NC(=O)[C@@H](NC(=O)[C@H](CCC(=O)O)NC(=O)[C@H](CCC(=O)O)NC(=O)[C@H](CCC(=O)O)NC(=O)[C@H](CO)NC(=O)[C@H](CC(C)C)NC(=O)[C@H](C)NC(=O)[C@H](CC(C)C)NC(=O)CNC(=O)[C@H](CCCNC(=N)N)NC(=O)[C@H](CC(C)C)NC(=O)[C@H](CO)NC(=O)CNC(=O)CNC(=O)CNC(=O)CCCC[C@@H]1SC[C@@H]2NC(=O)N[C@@H]21)C(C)C)C(=O)N[C@@H](CC(C)C)C(=O)N[C@@H](CC(=O)O)C(=O)N[C@@H](CCC(=O)O)C(=O)N[C@H](C(=O)N[C@H](C(=O)N[C@@H](CCCCN)C(=O)N[C@@H](CC(=O)O)C(=O)O)C(C)C)[C@@H](C)CC the Kd ratio was 4.3 (Fab B11 antibody (human); binding, biolayer interferometry; baseline: alanine mutant over wild type).
The melting temperature of CCC(C)/C=C/C(C)=C\C=C\C(C)=C\C=O (stereo not drawn) is reported as 67.9 °C (Rhodopsin, apoprotein (opsin) (RHO, Bos taurus, UniProt P02699); regenerated pigment stability, thermal shift, BFC probe; ROS disk membranes).
For Cc1ncsc1-c1ccc([C@@H]2CCCCCCNC(=O)C[C@@H]3N=C(c4ccc(cc4)OCCCCC(=O)N[C@@H](C(C)(C)C)C(=O)N4C[C@H](O)C[C@H]4C(=O)N2)c2c(sc(C)c2C)-n2c(C)nnc23)cc1, the degradation was 84% (Bromodomain-containing protein 4, short isoform (BRD4, Homo sapiens, UniProt O60885); degrader, immunoblotting, item: BRD4 short isoform; PC-3; 10 nM, 24 h).
The remaining activity of CC(C)C[C@H](NC(=O)[C@H](CC(C)C)NC(=O)[C@H](CCC(=O)O)NC(=O)[C@@H](N)CS)C(=O)O is reported as 83.6% (PPO3; enzyme activity, inhibitor; 12.5 µM).
O=C(O)c1cc(-c2ccc(CN3CCCC(CO)C3)o2)ccc1Cl (stereo not drawn) gave a signal attenuation of 17.1 ± 11.4% (DNA dC->dU-editing enzyme APOBEC-3B, C-terminal domain (Homo sapiens, UniProt Q9UH17); binding, 1H CPMG NMR; 20 µM protein).
Cc1cc(N2CCC(CO)(C3CC3)C2=O)cc(C(=O)NCc2cc(F)cc(-c3cnn(C)c3)c2)n1 (stereo not drawn) gave a melting temperature of 69.7 °C (Proline--tRNA ligase; thermal shift; with: ATP 2 mM).
Under “melting temperature shift”, Cc1ccc(-c2nc3n(ccc4nc(-c5ccc(C)cc5)c(C=NNC(=N)N)n43)c2C=NNC(=N)N)cc1 is recorded as 4.1 °C (T2, dsDNA, hairpin duplex; CD melting; DNA 15 µM, KCl 20 mM).
The melting temperature of Cc1cc(N2CC[C@@](C#N)(C3(C)CC3)C2=O)cc(C(=O)NCc2cc(F)cc(-c3cnn(C)c3)c2)n1 is reported as 78.5 °C (Proline--tRNA ligase; thermal shift; no substrate).
For COc1cc(OCCN2CCOCC2)cnc1-c1nc2cc(OC(F)(F)F)ccc2[nH]1, RUNX1 binding read “decreased” (Core-binding factor subunit beta, with RUNX1 (Homo sapiens, UniProt Q13951); co-immunoprecipitation, inhibitor; SEM; 10 µM, 6 h).
For CNc1ccccc1C(=O)O[C@H]1C[C@H](n2cnc3c(N)ncnc32)O[C@@H]1COP(=O)(O)OP(=O)(O)O, “pocket forward rate constant” read 0.19 ± 0.02 s⁻¹ (Unconventional myosin-Va (Gallus gallus, UniProt Q02440, D297C/G292C/I296C/S293C/V295G); stopped-flow FRET; 10 °C, with: MgCl2 2 mM).
With COc1cc(C2CC(=O)Nc3nc(N)[nH]c(=O)c32)ccc1O (stereo not drawn) the melting temperature was 65.8 °C (uncharacterized protein (Leishmania donovani, UniProt A0A3Q8IA09); Tyr fluorescence thermal shift; 100 µM).
For C[C@]12CCC[C@H]1[C@@H]1CCc3c(cc(Cl)c(O)c3Cl)[C@H]1CC2, the inhibition was 2.8% (Aldo-keto reductase family 1 member C1 (AKR1C1, Homo sapiens, UniProt Q04828); enzyme activity, inhibitor, absorbance; 100 µM, pH 9).
O=c1c2ccccc2n(CC2CC2)c(=O)n1O has a kcat of 3.03 ± 0.217 s⁻¹ (Flap endonuclease 1 (Homo sapiens, UniProt P39748); inhibitor; with: double-flap substrate DF1).
For COc1cc(CC(=O)O)ccc1O, the ΔG was -6.02 ± 0.12 kcal/mol (p-hydroxyphenylacetate 3-hydroxylase, reductase component (C1-hpah, Acinetobacter baumannii, UniProt Q6Q271); ITC; pH 7).
Under DUB activity, N#CN1CC[C@H](C(=O)Nc2ncc(N3CCOCC3)s2)C1 is recorded as “decreased” (Ubiquitin carboxyl-terminal hydrolase isozyme L1 (UCHL1, Homo sapiens, UniProt P09936); probe labeling, inhibitor; A549; 5 µM, with: Rh-Ub-PA probe; baseline: control).
N=C(N)NCCC[C@H](N)C(=O)N[C@@H](CC(=O)N[C@@H](Cc1ccccc1)C(=O)N[C@@H](CC(=O)O)C(=O)O)c1cccc2ccccc12 has a displacement concentration of at most 5 µM (ERBB2; binding; BT-474; 45 min, 37 °C, with: FITC-5 50 µM).
[11CH3]Nc1ccc(-c2nc3ccc(O)cc3o2)cn1 — result for “effect size of DVR”: 4.37 (Amyloid-beta precursor protein (APP, Homo sapiens, UniProt P05067); binding, PET; Alzheimer's disease patients, prefrontal cortex; unit not given; baseline: control subjects).
Under binding, O=c1ccn(C2OC(COP(=O)(O)OP(=O)(O)OP(=O)(O)O)C(O)C2O)c(=O)[nH]1 (stereo not drawn) is recorded as “no binding” (UAP1 (Homo sapiens, UniProt Q16222); surface plasmon resonance; concentration not given).
The IC50 of C[n+]1cccc2cc(/C=N/NC(=O)c3ccc4ccc5ccc(C(=O)N/N=C/c6ccc7c(ccc[n+]7C)c6)nc5c4n3)ccc21 is reported as over 2500 nM (T3, DNA hairpin, HEG linker; Thiazole Orange displacement, competitor, fluorescent indicator displacement; pH 7.2, KCl 100 mM).
The hydrolysis product of CC(=O)N1CCC[C@H]1C(=O)N[C@@H](CC(C)C)C(=O)N[C@@H](CO)C(=O)N[C@@H](CC(C)C)C(=O)N[C@@H](CCCNC(=N)N)C(=O)N[C@@H](CO)C(=O)N[C@@H](CCCCN)C(=O)O is reported as 53% (Matrix metalloproteinase-9 (MMP9, Homo sapiens, UniProt P14780); substrate, HPLC; 500 µM, 72 h, pH 7.5, 37 °C).
CC[C@H](C)[C@H](NC(=O)CNC(=O)[C@H](CCCNC(=N)N)NC(=O)[C@H](CCCCN)NC(=O)CNC(=O)[C@H](CC(N)=O)NC(=O)CNC(=O)CNC(=O)CNC(=O)[C@H](CC(C)C)NC(=O)[C@H](C)NC(=O)CNC(=O)[C@H](Cc1c[nH]c2ccccc12)NC(=O)[C@H](Cc1ccc(O)cc1)NC(=O)CNC(=O)[C@H](CCCNC(=N)N)NC(=O)[C@H](CCSC)NC(=O)CNC(=O)[C@H](CCCCN)NC(=O)[C@H](CC(N)=O)NC(=O)[C@H](Cc1ccccc1)NC(=O)[C@H](CCCCN)NC(=O)[C@@H](N)CC(N)=O)C(=O)N[C@@H](CCSC)C(=O)NCC(=O)N[C@@H](Cc1ccc(O)cc1)C(=O)N[C@@H](CC(=O)O)C(=O)O gave a koff of 0.0121 s⁻¹ (ERBB2; binding, SPR).
For CC(C)C[C@H](NC(=O)[C@H](CCC(=O)O)NC(=O)[C@@H](N)CS)C(=O)N[C@@H](CC(N)=O)C(=O)O, the remaining activity was 90.3% (PPO3; enzyme activity, inhibitor; 12.5 µM).
Nc1ncnc2c1ccn2[C@@H]1O[C@@H]2COP(=O)(O)O[C@H]3[C@@H](O)[C@H](n4ccc5c(N)ncnc54)O[C@@H]3COP(=O)(O)O[C@H]2[C@H]1O gave a ΔΔG binding of 1.5 kcal/mol (ydaO riboswitch wild type (Bacillus subtilis); competition gel-shift; concentration not given; baseline: c-di-AMP).
With CC1=C(/C=C/C(C)=C/C=C/C(C)=C/C=O)C(C)(C)CCC1 the Hill coefficient was 1.8 (CNGA1/CNGB1 (Bos taurus, UniProt Q00194+Q28181); ion current, inhibitor, inside-out patch clamp; Xenopus oocytes, heteromeric rod CNG; +100 mV, with: cGMP 2 mM).
COc1cc(F)c(C(C)C)cc1C1=C(CN2C(=O)O[C@H](c3cc(C(F)(F)F)cc(C(F)(F)F)c3)[C@@H]2C)CC(C)(C)CC1: “time of maximum inhibition” 8.3 h (Cholesteryl ester transfer protein (Homo sapiens, UniProt P11597); enzyme activity; healthy male subjects, plasma; oral, 100 mg single dose).
For CC(C)n1c(-c2ccc(-c3ccc(C(=N)N)c(Cl)c3)s2)nc2cc3nc(-c4ccc(-c5ccc(C(=N)N)c(Cl)c5)s4)n(C(C)C)c3cc21, the Kd was 62 nM (T4, dsDNA, hairpin; SPR; pH 7.4, Na+ 100 mM).
Under “entropic term −TΔS”, CSCC[C@H](NC(=O)[C@H](CO)NC(=O)[C@@H](NC(=O)[C@H](CCC(N)=O)NC(=O)[C@@H](CCCNC(=N)N)NC(=O)[C@@H](CCCNC(=N)N)NC(=O)[C@@H](CCCCN)NC(=O)[C@@H](CCCNC(=N)N)NC(C)=O)[C@@H](C)O)C(=O)N[C@H](C(=O)N[C@@H](CC(=O)O)C(=O)N[C@@H](Cc1ccccc1)C(=O)N[C@@H](Cc1ccc(O)cc1)C(=O)N[C@@H](Cc1c[nH]cn1)C(=O)N[C@@H](CO)C(=O)N[C@H](CCCCN)C(=O)N[C@H](CCCNC(=N)N)C(=O)N[C@H](CCCNC(=N)N)C(N)=O)[C@@H](C)O is recorded as 12 ± 0.717 kcal/mol (Proliferating cell nuclear antigen (PCNA, Homo sapiens, UniProt P12004); binding, isothermal titration calorimetry; pH 7.4, 25 °C, 300 mM NaCl, with: p21 peptide).
O=C(Cn1c(=O)oc2ccccc21)N(c1ccc(F)cc1)c1ccc(F)cc1 has an EC200 of over 30 µM (Proteasome subunit alpha type-2/Proteasome subunit alpha type-6, 20S proteasome (Homo sapiens, UniProt P25787+P60900); proteolysis, activator, fluorogenic peptide; purified 20S proteasome; with: Suc-LLVY-AMC, Z-LLE-AMC, Boc-LRR-AMC).
